Assay results pooled from the literature.
Each numbered part is a random draw from the data of one study; scales do not carry over between parts. Several values in a cell are separate wells, animals, samples, runs or records.
UniProt P41743, sequence (whole entry, looked up): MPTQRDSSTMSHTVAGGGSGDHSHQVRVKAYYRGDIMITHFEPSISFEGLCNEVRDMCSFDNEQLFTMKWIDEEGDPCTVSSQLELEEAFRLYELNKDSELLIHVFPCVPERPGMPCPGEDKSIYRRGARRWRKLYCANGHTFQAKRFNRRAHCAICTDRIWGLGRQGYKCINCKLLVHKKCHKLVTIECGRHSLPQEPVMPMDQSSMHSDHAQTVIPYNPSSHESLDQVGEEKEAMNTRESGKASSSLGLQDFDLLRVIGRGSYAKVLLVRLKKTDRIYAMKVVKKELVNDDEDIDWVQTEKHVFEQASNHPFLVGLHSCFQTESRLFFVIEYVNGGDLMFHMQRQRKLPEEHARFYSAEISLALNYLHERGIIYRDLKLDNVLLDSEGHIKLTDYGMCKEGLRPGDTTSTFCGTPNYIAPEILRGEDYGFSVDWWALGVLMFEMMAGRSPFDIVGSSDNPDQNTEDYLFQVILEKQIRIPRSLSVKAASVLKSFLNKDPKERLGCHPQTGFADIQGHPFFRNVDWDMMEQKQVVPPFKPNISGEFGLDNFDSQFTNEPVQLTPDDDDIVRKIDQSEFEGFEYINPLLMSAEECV
UniProt Q9UEE5, sequence (whole entry, looked up): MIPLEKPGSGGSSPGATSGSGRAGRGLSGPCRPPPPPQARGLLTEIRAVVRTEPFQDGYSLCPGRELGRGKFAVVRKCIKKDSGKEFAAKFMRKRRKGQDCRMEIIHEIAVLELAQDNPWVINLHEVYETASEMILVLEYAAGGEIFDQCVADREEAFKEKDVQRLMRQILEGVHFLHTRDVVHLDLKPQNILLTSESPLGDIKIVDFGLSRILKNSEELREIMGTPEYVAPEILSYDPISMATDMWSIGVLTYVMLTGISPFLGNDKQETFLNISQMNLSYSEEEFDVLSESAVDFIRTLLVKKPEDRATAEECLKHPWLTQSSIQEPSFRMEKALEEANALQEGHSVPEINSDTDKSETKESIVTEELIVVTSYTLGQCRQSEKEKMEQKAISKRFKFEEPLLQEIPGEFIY
UniProt Q04759, sequence (whole entry, looked up): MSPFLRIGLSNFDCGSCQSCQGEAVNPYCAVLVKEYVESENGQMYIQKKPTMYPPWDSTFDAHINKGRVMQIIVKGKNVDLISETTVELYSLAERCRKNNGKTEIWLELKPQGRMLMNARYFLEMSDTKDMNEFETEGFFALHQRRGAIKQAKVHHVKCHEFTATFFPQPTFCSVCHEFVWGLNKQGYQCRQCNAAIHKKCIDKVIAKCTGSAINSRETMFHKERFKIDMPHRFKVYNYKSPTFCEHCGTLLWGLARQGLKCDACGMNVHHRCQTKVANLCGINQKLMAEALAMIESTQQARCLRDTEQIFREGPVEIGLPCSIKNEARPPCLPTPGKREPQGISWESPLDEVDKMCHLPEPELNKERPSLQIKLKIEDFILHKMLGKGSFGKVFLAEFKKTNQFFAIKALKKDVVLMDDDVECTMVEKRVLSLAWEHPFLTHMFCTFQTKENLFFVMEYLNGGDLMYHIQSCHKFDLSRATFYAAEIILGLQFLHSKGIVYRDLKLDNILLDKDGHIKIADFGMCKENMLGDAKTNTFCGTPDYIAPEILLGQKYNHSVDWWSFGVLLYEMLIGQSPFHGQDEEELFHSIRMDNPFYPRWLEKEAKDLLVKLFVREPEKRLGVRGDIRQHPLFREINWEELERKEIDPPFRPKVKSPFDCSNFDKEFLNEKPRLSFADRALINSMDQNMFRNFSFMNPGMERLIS
UniProt P10721, sequence (whole entry, looked up): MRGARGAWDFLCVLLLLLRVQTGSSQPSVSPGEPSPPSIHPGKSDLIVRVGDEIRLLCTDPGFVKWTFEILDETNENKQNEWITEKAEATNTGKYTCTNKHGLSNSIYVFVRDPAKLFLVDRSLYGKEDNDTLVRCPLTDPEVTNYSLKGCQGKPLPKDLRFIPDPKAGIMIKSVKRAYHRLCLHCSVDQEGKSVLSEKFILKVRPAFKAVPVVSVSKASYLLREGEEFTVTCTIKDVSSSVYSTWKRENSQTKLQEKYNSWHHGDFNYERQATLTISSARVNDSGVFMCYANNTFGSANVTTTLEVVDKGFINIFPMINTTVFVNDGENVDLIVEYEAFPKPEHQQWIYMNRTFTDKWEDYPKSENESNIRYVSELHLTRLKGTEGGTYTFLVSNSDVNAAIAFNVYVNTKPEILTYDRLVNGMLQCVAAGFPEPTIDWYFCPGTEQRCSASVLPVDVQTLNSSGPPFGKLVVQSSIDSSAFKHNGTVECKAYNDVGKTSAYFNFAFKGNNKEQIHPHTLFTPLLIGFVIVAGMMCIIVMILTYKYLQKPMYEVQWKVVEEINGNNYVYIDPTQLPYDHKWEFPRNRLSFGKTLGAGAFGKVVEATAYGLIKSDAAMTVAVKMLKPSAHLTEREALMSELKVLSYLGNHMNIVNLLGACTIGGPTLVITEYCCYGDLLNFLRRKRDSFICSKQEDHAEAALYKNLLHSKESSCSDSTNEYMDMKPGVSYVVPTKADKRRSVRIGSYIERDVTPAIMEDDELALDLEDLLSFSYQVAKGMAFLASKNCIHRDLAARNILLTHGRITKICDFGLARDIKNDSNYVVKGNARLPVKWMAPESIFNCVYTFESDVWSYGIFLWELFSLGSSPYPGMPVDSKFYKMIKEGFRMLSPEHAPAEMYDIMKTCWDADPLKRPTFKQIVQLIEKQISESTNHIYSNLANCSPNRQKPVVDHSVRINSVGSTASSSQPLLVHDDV
UniProt Q02156, sequence (whole entry, looked up): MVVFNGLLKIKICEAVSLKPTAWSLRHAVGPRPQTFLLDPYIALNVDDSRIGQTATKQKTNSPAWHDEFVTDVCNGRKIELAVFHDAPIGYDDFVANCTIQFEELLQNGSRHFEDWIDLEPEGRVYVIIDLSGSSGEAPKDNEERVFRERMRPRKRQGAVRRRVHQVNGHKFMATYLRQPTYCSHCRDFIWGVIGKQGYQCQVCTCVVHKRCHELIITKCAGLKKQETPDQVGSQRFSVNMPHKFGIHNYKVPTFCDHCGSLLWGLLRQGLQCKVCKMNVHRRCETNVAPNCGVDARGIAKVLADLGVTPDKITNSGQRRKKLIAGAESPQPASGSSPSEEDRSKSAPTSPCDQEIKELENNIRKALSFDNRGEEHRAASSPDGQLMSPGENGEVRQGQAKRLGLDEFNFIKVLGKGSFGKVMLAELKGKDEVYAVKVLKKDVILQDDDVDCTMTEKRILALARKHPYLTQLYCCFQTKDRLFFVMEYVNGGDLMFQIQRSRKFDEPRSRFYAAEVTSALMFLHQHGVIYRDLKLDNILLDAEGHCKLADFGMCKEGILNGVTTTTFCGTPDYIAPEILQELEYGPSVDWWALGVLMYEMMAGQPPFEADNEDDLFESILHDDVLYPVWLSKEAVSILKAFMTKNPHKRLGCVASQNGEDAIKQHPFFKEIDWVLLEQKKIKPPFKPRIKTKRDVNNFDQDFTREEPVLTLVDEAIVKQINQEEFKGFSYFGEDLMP
UniProt P51955, sequence (whole entry, looked up): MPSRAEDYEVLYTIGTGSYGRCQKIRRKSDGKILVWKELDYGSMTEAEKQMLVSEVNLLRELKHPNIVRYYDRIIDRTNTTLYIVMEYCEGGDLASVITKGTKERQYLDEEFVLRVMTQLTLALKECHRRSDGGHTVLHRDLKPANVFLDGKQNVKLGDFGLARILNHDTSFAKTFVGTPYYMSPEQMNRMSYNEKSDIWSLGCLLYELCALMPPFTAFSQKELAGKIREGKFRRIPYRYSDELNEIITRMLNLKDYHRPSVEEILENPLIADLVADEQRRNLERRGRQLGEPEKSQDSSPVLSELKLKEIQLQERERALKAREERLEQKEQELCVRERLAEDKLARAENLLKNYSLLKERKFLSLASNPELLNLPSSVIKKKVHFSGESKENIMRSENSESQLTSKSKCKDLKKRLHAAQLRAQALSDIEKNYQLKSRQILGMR

Series 1
Host: C57BL/6 IFN-γ knockout mouse female
Medium: plasma
Route: oral
Dose: 10 mg/kg
Time: 7 h
With CCOC(=O)CN(C(=O)c1ccn2ncc(-c3ccc(C(=O)NC)cc3)c2c1)c1ccc(Cl)cc1 the plasma concentration was 0.128 µM and 0.059 µM and 0.108 µM.
CNC(=O)c1ccc(-c2cnn3ccc(C(=O)N(C[C@H]4CCC(=O)O4)c4ccc(OC(F)(F)F)cc4)cc23)cc1 gave a plasma concentration of 0.00183 µM and 0.0038 µM.
The plasma concentration of COC(=O)c1cc(Cl)ccc1N(C)C(=O)c1ccn2ncc(-c3ccc(C(N)=O)cc3)c2c1 is reported as 0.00642 µM and 0.008 µM and 0.016 µM.
The plasma concentration of CN(C(=O)c1ccn2ncc(-c3ccc(C(N)=O)cc3)c2c1)c1ccc(C#N)cn1 is reported as 0.469 µM and 0.23 µM.

Series 2
Target: Mitogen-activated protein kinase kinase kinase 9 (MAP3K9, Homo sapiens, UniProt P80192)
UniProt P80192, sequence (whole entry, looked up): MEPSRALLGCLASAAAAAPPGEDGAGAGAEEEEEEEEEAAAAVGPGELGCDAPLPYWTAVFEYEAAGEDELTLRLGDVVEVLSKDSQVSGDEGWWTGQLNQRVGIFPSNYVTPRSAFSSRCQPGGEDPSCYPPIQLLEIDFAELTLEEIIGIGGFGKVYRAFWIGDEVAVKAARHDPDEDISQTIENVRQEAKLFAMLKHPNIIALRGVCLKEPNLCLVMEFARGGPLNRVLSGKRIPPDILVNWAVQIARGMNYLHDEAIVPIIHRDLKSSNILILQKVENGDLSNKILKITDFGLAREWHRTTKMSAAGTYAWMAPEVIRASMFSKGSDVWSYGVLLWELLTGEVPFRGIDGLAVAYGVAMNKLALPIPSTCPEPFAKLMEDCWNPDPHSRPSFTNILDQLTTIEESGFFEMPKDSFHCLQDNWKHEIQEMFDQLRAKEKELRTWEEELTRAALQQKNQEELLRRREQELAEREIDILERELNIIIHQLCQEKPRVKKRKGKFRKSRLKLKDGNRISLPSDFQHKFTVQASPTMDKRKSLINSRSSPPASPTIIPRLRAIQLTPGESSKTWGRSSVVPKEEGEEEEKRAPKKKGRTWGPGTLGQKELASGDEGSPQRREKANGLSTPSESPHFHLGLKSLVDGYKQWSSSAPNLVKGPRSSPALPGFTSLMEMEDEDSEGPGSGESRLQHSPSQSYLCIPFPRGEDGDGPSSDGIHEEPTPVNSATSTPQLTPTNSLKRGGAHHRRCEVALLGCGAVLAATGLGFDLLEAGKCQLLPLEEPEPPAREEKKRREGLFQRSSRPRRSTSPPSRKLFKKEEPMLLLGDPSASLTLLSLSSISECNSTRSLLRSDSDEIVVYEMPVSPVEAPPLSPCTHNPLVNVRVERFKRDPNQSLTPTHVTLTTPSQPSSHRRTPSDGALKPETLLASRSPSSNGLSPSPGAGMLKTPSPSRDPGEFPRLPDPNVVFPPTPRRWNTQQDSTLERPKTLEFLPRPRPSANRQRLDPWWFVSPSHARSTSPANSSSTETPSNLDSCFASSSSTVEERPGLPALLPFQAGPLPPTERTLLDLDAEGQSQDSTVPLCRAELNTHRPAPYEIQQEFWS
Effect on: enzyme activity
Mode: inhibitor
Concentration: 0.5 µM
Baseline: control
For CCN(CC)CCCCN1c2ccccc2Oc2ccc(Cl)cc21, the remaining activity was 95.7%.
For NC(=O)c1cccc(-c2cc(Nc3ccc(OC(F)(F)F)cc3)ncn2)c1, the remaining activity was 95.7%.
C[C@@H](N)[C@H]1CC[C@H](C(=O)Nc2ccncc2)CC1 has a remaining activity of 96.2%.
For O=C1c2ccccc2-c2nc3nnnn3nc21, the remaining activity was 63.3%.
N#CC(c1ccnc(NCCc2cccnc2)n1)c1nc2ccccc2s1 (centres unmarked) has a remaining activity of 100%.
For COc1cc2c(N3CCN(C(=O)Nc4ccc(OC(C)C)cc4)CC3)ncnc2cc1OCCCN1CCCCC1, the remaining activity was 108%.
CNc1cc2c(Nc3cccc(Br)c3)ncnc2cn1 has a remaining activity of 94.4%.
O=Nc1c(-c2c(O)[nH]c3ccccc23)[nH]c2ccccc12 has a remaining activity of 19.1%.

Series 3
Compound: CC(C)n1cnc(-c2ccc(F)cc2)c1-c1ncc(C(=O)Nc2ccc(N3CCN(C)CC3)cc2)[nH]1
Host: idiopathic pulmonary fibrosis patients
For dose not given, ventricular extrasystoles grade 5: “adverse event incidence” read 0%.
The “adverse event incidence” was 0% (phase 2a trial, measured: gingivitis; 30 mg once daily, grade 4).
It gave 0% for “adverse event incidence” (phase 2a trial, measured: ventricular extrasystoles; 60 mg once daily, grade 1).
phase 2a trial, measured: ECG ST segment abnormal; 60 mg once daily, grade 1 — “adverse event incidence”: 0%.
It gave 0% for “adverse event incidence” (phase 2a trial, measured: gingivitis; dose not given, grade 4, all arms pooled).
For phase 2a trial, measured: gingivitis; 30 mg once daily, grade 2: “adverse event incidence” read 0%.
For phase 2a trial, measured: appendicitis; dose not given, grade 5, all arms pooled: “adverse event incidence” read 0%.
phase 2a trial, measured: weight decreased; dose not given, grade 2, all arms pooled — “adverse event incidence”: 0%.

Series 4
SMILES: CC(=O)N1CCC(c2ccc(C(=O)NC3=NCCN3)cc2C(F)(F)F)CC1
Effect on: cell-free assay
Technique: competition with immobilised ligand
Concentration: 1 µM
It gave 93% for remaining binding (PRKCQ (Homo sapiens, UniProt Q04759)).
It gave 100% for remaining binding (LRRK2 (Homo sapiens, UniProt Q5S007)).
For FLT3 (Homo sapiens, UniProt P36888, F691L/ITD): remaining binding read 88%.
NEK2 (Homo sapiens, UniProt P51955) — remaining binding: 100%.
It gave 92% for remaining binding (PDGFRA (Homo sapiens, UniProt P16234)).
STK17A (Homo sapiens, UniProt Q9UEE5) — remaining binding: 100%.
For PRKCE (Homo sapiens, UniProt Q02156): remaining binding read 84%.
PIP5K1C (Homo sapiens, UniProt O60331) — remaining binding: 99%.
It gave 91% for remaining binding (Mast/stem cell growth factor receptor Kit, autoinhibited (KIT, Homo sapiens, UniProt P10721)).
The remaining binding was 100% (CAMK2G (Homo sapiens, UniProt Q13555)).
The remaining binding was 83% (EIF2AK1 (Homo sapiens, UniProt Q9BQI3)).
It gave 83% for remaining binding (PRKCI (Homo sapiens, UniProt P41743)).
TLK2 (Homo sapiens, UniProt Q86UE8) — remaining binding: 100%.
It gave 100% for remaining binding (FGFR3 (Homo sapiens, UniProt P22607)).

Mixed results
Under “GI epithelial change score”, CC(=O)N[C@@H](Cc1c[nH]c2ccccc12)C(=O)N[C@@H](CCC(=O)C=[N+]=[N-])C(=O)OC(C)C is recorded as 0 (histopathology; mouse C57BL/6 CES1-/-, GI tissue; subcutaneous, 0.8 mg/kg; direction not given).

Repeated from above (series 2):
O=Nc1c(-c2c(O)[nH]c3ccccc23)[nH]c2ccccc12 has a remaining activity of 19.1%.
N#CC(c1ccnc(NCCc2cccnc2)n1)c1nc2ccccc2s1 (centres unmarked) has a remaining activity of 100%.
For NC(=O)c1cccc(-c2cc(Nc3ccc(OC(F)(F)F)cc3)ncn2)c1, the remaining activity was 95.7%.
For CCN(CC)CCCCN1c2ccccc2Oc2ccc(Cl)cc21, the remaining activity was 95.7%.
